Assay results pooled from the literature.
Each numbered part is a random draw from the data of one study; scales do not carry over between parts.
Chain of UniProt Q9P0L2 (whole entry, looked up): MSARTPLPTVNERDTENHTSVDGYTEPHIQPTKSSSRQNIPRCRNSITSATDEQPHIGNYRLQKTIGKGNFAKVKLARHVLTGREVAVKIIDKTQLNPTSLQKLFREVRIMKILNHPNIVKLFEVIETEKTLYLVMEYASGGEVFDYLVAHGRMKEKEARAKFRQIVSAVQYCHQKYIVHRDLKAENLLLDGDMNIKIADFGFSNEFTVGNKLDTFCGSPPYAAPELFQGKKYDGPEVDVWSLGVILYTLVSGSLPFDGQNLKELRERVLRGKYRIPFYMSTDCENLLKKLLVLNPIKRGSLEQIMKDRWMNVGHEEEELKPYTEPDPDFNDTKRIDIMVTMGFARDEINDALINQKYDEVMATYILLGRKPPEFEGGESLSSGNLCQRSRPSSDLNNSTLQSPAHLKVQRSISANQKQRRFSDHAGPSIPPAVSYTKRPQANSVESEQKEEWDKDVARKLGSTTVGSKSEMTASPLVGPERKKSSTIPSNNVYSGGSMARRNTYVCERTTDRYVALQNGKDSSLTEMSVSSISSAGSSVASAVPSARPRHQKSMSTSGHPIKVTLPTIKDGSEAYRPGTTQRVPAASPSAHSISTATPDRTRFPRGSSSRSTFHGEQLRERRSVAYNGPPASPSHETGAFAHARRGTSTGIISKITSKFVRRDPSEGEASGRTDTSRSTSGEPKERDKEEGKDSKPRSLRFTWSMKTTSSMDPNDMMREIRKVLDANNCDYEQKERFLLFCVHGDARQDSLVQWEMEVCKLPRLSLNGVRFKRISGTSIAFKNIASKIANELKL
Chain of UniProt P49674 (whole entry, looked up): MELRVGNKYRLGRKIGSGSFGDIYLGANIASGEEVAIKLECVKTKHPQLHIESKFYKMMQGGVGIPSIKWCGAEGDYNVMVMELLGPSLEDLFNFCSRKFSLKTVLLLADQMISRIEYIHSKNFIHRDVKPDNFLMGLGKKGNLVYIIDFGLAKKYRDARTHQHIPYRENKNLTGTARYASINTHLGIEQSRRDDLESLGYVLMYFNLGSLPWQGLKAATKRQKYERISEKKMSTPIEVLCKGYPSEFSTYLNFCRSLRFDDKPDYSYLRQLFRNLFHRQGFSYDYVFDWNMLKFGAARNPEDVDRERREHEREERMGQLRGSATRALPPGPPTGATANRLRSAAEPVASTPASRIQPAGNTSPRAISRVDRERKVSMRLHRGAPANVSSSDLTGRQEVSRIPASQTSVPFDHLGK
Chain of UniProt O15146 (whole entry, looked up): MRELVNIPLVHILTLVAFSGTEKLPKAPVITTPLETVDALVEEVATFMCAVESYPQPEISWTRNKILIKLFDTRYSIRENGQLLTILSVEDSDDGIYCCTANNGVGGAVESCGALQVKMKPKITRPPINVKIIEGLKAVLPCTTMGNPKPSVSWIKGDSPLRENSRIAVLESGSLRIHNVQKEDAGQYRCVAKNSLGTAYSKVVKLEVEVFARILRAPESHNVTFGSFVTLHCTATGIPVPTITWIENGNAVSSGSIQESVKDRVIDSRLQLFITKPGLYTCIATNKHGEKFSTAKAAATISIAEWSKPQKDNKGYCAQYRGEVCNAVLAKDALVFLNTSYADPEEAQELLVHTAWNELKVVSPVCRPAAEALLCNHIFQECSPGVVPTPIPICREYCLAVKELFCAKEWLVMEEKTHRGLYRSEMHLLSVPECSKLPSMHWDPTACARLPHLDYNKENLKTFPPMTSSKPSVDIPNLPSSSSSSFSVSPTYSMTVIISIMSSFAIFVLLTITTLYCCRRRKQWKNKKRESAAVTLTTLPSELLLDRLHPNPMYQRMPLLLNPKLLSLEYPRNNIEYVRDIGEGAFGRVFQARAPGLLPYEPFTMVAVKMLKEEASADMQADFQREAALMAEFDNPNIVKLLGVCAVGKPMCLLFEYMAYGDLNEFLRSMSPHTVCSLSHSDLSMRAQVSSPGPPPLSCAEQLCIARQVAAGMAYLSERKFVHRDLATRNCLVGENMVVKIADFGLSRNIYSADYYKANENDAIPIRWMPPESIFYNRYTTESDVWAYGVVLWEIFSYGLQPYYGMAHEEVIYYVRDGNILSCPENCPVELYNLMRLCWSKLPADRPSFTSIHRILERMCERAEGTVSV
Chain of UniProt Q9UF33 (whole entry, looked up): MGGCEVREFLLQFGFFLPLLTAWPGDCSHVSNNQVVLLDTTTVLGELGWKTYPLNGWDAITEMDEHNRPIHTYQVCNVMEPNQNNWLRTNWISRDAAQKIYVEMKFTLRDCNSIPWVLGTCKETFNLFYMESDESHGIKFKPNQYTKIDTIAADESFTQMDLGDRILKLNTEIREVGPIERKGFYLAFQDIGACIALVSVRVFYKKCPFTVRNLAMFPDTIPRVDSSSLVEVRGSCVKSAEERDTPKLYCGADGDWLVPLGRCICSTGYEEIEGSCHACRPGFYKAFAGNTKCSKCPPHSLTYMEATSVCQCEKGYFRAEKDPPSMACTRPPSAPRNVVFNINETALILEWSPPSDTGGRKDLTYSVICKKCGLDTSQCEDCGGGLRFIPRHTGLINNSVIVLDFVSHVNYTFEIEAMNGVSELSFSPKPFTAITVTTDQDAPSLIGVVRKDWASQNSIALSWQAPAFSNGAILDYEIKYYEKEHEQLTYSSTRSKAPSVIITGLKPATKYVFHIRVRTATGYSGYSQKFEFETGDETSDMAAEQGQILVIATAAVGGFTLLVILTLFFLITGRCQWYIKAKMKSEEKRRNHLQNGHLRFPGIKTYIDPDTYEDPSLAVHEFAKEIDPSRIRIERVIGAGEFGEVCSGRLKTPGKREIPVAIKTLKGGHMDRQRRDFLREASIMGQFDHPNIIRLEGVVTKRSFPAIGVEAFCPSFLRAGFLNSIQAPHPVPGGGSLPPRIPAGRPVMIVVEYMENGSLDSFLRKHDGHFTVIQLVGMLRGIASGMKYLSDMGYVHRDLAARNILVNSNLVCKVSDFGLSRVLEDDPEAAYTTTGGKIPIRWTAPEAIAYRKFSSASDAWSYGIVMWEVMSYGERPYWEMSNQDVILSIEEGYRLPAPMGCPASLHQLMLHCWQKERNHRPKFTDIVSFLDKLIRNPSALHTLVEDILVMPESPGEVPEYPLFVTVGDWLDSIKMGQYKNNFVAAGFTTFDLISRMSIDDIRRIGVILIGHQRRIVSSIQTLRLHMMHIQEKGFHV
Chain of UniProt P49759 (whole entry, looked up): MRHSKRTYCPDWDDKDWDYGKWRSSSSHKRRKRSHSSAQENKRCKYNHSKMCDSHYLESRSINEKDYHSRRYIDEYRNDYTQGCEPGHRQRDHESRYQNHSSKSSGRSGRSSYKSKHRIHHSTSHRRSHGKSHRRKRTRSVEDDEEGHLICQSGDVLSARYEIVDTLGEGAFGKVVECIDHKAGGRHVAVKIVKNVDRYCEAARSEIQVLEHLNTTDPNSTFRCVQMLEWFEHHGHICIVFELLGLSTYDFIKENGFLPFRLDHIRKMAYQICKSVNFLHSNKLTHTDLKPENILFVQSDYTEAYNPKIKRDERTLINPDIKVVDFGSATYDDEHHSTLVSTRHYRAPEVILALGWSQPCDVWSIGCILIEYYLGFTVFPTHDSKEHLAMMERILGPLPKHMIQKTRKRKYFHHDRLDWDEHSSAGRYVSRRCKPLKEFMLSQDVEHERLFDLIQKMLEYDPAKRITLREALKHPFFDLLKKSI

Series 1 — Structure (SMILES): COc1cc2ncc(-c3ccccc3)nc2cc1OC; observed: enzyme activity; mode: inhibitor; concentration: 0.5 µM; relative to: control; endpoint: remaining activity
PIM1 (Homo sapiens, UniProt P11309): 95.9%
PAK5 (Homo sapiens, UniProt Q9P286): 85.6%
CSNK1E (Homo sapiens, UniProt P49674): 79.3%
RPS6KB2 (Homo sapiens, UniProt Q9UBS0): 104%
JAK2 (Homo sapiens, UniProt O60674): 94.4%
CAMKK1 (Homo sapiens, UniProt Q8N5S9): 98.9%
EPHA2 (Homo sapiens, UniProt P29317): 102%
CLK1 (Homo sapiens, UniProt P49759): 102%
FLT1 (Homo sapiens, UniProt P17948): 85%
DYRK1A (Homo sapiens, UniProt Q13627): 97.2%
FES (Homo sapiens, UniProt P07332): 105%
SIK2 (Homo sapiens, UniProt Q9H0K1): 93.1%
EPHA6 (Homo sapiens, UniProt Q9UF33): 90.4%
EPHB3 (Homo sapiens, UniProt P54753): 88.6%
Cyclin-dependent kinase 5, with p35 (CDK5, Homo sapiens, UniProt Q00535): 95.8%
PAK4 (Homo sapiens, UniProt O96013): 75.9%
MARK1 (Homo sapiens, UniProt Q9P0L2): 92.6%
SGK2 (Homo sapiens, UniProt Q9HBY8): 95.6%
CAMK1 (Homo sapiens, UniProt Q14012): 90.4%
CLK2 (Homo sapiens, UniProt P49760): 87.4%
IGF1R (Homo sapiens, UniProt P08069): 91.1%
JAK1 (Homo sapiens, UniProt P23458): 91.5%
RPS6KA3 (Homo sapiens, UniProt P51812): 101%
ERBB2 (Homo sapiens, UniProt P04626): 116%
MUSK (Homo sapiens, UniProt O15146): 95.9%

Series 2 — observed: cell-free assay; method: competition with immobilised ligand; concentration: 0.1 µM; endpoint: remaining binding
SMILES: CC(C)CC(=O)N1CCc2nc(-c3ccc(Br)cc3)nc(N(C)Cc3ccccc3)c2C1
BTK (Homo sapiens, UniProt Q06187): 100%
STK17A (Homo sapiens, UniProt Q9UEE5): 96%
STK36 (Homo sapiens, UniProt Q9NRP7): 78%
STK26 (Homo sapiens, UniProt Q9P289): 100%
PHKG1 (Homo sapiens, UniProt Q16816): 100%
EPHB4 (Homo sapiens, UniProt P54760): 100%
YES1 (Homo sapiens, UniProt P07947): 100%
MARK1 (Homo sapiens, UniProt Q9P0L2): 92%

Series 3 — mode: inhibitor; concentration: 10 µM; relative to: control; endpoint: remaining activity
Target: Diamine acetyltransferase 1 (Homo sapiens, UniProt P21673)
Target sequence (P21673 1-171): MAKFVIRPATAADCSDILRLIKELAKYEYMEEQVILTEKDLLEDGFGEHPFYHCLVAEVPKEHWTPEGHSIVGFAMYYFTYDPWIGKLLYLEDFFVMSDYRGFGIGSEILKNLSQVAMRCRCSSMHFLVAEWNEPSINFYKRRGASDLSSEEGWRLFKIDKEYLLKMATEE
CC(=O)O[C@@H](C[C@@H](C)C1=C2C[C@H](O)[C@H]3[C@@]4(C)CCC(=O)C(C)(C)[C@@H]4CC[C@]3(C)[C@@]2(C)CC1)[C@H]1OC1(C)C: 96.5%
CC1(C)CC[C@]2(C(=O)O[C@@H]3O[C@H](CO)[C@@H](O)[C@H](O)[C@H]3O)CC[C@]3(C)C(=CC[C@@H]4[C@@]5(C)CC[C@H](O[C@@H]6O[C@H](C(=O)O)[C@@H](O)[C@H](O)[C@H]6O)C(C)(C)[C@@H]5CC[C@]43C)[C@@H]2C1: 97.3%
CC(C)(O)[C@@H](O)COc1c2ccoc2cc2oc(=O)ccc12: 81.5%
O=c1c(O)c(-c2ccc(O)c(O)c2)oc2cc(O)ccc12: 92.1%
CC(C)(O[C@@H]1O[C@H](CO)[C@@H](O)[C@H](O)[C@H]1O)[C@H]1Cc2cc3ccc(=O)oc3cc2O1: 85.4%

Series 4 — SMILES: CCN(c1nc(N)c(C(=O)N=C(N)N)nc1Cl)C(C)C; observed: β-arrestin recruitment; mode: agonist; method: PRESTO-Tango; concentration: 10 µM; relative to: untreated; endpoint: fold over basal
GPR65 (Homo sapiens, UniProt Q8IYL9): 0.87
PROKR2 (Homo sapiens, UniProt Q8NFJ6): 0.8
HTR1F (Homo sapiens, UniProt P30939): 0.38
GPR3 (Homo sapiens, UniProt P46089): 1.84
Mas-related G-protein coupled receptor member G (MRGPRG, Homo sapiens, UniProt Q86SM5): 0.9
AGTR1 (Homo sapiens, UniProt P30556): 0.72
Probable G-protein coupled receptor 82 (GPR82, Homo sapiens, UniProt Q96P67): 0.76

Series 5 — cell line: HaCaT; concentration: 100 µM; time: 60 h; endpoint: viability
Nc1nc(=O)n([C@@H]2CS[C@H](CO)O2)cc1F: 130%
Cc1ccnc(NS(=O)(=O)c2ccc(N)cc2)n1: 107%
CC(=O)O[C@H]1CC[C@@]2(C)C(=CC[C@@H]3[C@@H]2CC[C@]2(C)C(c4cccnc4)=CC[C@@H]32)C1: 19.5%
CC(C)C(=O)Nc1ccc([N+](=O)[O-])c(C(F)(F)F)c1: 43.5%
O=C(O)[C@H](O)[C@@H](O)[C@H](O)[C@H](O)CO: 126%
O=C(O)c1cc(-c2ccccc2)nc2ccccc12: 88.1%

For quick reference, copied from above (series 1):
ERBB2 (Homo sapiens, UniProt P04626): 116%
CLK1 (Homo sapiens, UniProt P49759): 102%
FLT1 (Homo sapiens, UniProt P17948): 85%
IGF1R (Homo sapiens, UniProt P08069): 91.1%
SGK2 (Homo sapiens, UniProt Q9HBY8): 95.6%
